# Measurements collected from several papers.
# Each numbered part is a random draw from the data of one study; scales do not carry over between parts.

# Set 1
# Target: Ras GTPase-activating protein-binding protein 1, C-terminal RGG region (G3BP1, Homo sapiens, UniProt Q13283)
# Chain of UniProt Q13283 (whole entry, looked up): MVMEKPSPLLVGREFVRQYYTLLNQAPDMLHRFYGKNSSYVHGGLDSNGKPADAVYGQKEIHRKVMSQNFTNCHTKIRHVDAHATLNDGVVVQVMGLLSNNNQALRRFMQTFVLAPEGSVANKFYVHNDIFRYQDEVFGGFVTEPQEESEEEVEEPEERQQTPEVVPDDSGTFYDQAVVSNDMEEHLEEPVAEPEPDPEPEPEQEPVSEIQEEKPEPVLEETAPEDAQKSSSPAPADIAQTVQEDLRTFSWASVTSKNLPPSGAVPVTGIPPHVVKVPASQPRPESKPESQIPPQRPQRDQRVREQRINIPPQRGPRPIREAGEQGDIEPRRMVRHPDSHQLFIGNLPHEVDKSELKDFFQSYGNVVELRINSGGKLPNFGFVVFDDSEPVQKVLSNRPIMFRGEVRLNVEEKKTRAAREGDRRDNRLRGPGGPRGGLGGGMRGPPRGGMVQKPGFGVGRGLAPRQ
# Method: RNA Bind-n-Seq
# Molecule type: RNA
# Matrix: in vitro
# Concentration: 1 µM
# Setting: whole 134-nt RNA, ends assumed
# Added: 150 mM KCl
# Reference: input library
# Reading: higher = stronger binding
# All sequences stand within: GGGAGUUCUACAGUCCGACGAUC … UGGAAUUCUCGGGUGUCAAGG
Sequence,log2 enrichment
GCAGGAAGUAAAAACAAAUGGAAAUGCUUCGAAUAGUGGCAGGGGUGGGGGUUGCUAAGGAAAGGGUGGGAUGGGAGUGGGUAAAGAGUU,1.96
CAAGUCCUGUGCUACACAUCGUAUGUACCGAAUCGGGUUUGGGUUUGGGUUUGGGAAAGUAUUAUGUUACGCCGUUCGGAUCUGCACUUC,2.36
CUCAAGUCCUGUGCUACACAUCGUAUGUACCGAAUCGGAAAGGAGGAAAAAGGAAAGUAUUAUGUUACGCCGUUCGGAUCUGCACUUCCA,-1.24
UCAAGUCCUGUGCUACACAUCGUAUGUACCGAAUCGGGUGGGUUUUUGGGUGGGAAAGUAUUAUGUUACGCCGUUCGGAUCUGCACUUCC,0.952
UAACUUUAGAGGAGGAUCUGAUGGAUAUGGCAGUGGACGUGGAUUUGGGGAUGGCUAUAAUGGGUAUGGAGGAGGACCUGGAGGUGGCAC,-0.547
UCUAACUAAUUUUUCUUUGUUUUUUAACAGGAGAGGAGAUACUUACCCUUAAGUCAAGCCAGAAAAAGUGGUUUCCAAAUGGAUUGGCUG,-1.82
CACAGACAACACGCACCCACACAGACACAGAGGGAAGGGGUUGGGAUGGGGACAGGGUGCACAGCCGGGCGGGGUAGGACCCCAGCCCCU,0.058
UCAAGUCCUGUGCUACACAUCGUAUGUACCGAAUCGGCCCGGGCCCGGGGCCCGGAAAGUAUUAUGUUACGCCGUUCGGAUCUGCACUUC,-1.68

# Set 2
# Target: Sal-like protein 4, full length isoform B (SALL4, Homo sapiens, UniProt Q9UJQ4-2, residues 1-616)
# Method: universal PBM
# Molecule type: double-stranded DNA, one strand shown
# Matrix: in vitro
# Concentration: not given
# Setting: 8-mer, flanks averaged, mean of replicates
# Reading: higher = stronger binding
# Construct (chain): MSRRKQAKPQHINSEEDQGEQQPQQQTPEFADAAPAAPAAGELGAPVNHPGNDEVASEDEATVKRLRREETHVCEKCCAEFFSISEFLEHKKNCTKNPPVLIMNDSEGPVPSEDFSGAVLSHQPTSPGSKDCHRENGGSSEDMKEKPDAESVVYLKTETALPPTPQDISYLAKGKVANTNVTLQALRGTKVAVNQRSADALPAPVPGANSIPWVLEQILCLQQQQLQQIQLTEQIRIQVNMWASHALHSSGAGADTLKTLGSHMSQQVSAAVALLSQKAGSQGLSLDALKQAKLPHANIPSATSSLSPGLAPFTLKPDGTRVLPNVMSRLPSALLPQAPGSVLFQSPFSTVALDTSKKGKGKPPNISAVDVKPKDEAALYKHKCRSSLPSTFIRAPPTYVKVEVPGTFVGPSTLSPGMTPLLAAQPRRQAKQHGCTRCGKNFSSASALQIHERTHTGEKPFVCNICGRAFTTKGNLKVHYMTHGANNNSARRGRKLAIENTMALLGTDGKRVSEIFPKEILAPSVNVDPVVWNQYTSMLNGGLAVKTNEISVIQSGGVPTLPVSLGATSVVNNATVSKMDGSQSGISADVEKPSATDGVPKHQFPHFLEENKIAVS
Sequence,E-score
ACAGACTC,-0.0961
TAGTCGAA,0.0995
AGCAACAA,0.186
ATGCTCCC,-0.113
CGAACTGC,-0.0725
CTGTCACA,0.0151
CCCATGCA,0.101
CACGCCTG,-0.197

# Further values, each from its own experiment
# Molecule type: peptide
# Concentration: concentration not given
Sequence,target,test,system,setting,how to read,endpoint,result
AAAVRKPIVLKR,human cyclin B2,"peptide binding, yeast competitive growth sequencing","Saccharomyces cerevisiae, cyclin B2-Cln2 fusion",peptide tiling library,"reference: Cln2 fusion control, direction not given",binding enrichment score,-0.42
RQMRASAPL,"HLA class I histocompatibility antigen, C alpha chain, allele C*04:01 (Homo sapiens, UniProt P10321)",peptide-MHC binding,,,,binding,inactive

# Some of these lines once more (set 1):
Sequence,log2 enrichment
GCAGGAAGUAAAAACAAAUGGAAAUGCUUCGAAUAGUGGCAGGGGUGGGGGUUGCUAAGGAAAGGGUGGGAUGGGAGUGGGUAAAGAGUU,1.96
CAAGUCCUGUGCUACACAUCGUAUGUACCGAAUCGGGUUUGGGUUUGGGUUUGGGAAAGUAUUAUGUUACGCCGUUCGGAUCUGCACUUC,2.36
CUCAAGUCCUGUGCUACACAUCGUAUGUACCGAAUCGGAAAGGAGGAAAAAGGAAAGUAUUAUGUUACGCCGUUCGGAUCUGCACUUCCA,-1.24
